# Results pooled from the literature.
# Parts stem from different laboratories: compare values within a part only.

# Block 1
# Target: PABPC1L2, full length, GST fusion (mouse, UniProt A0ABA7IW68)
# Method: RNAcompete
# Molecule type: RNA
# Medium: in vitro
# Concentration: 20 nM
# Setting: 7-mer, probes averaged, single round
# Relative to: mean of 7-mers
# Direction: higher = stronger binding
# Construct (chain): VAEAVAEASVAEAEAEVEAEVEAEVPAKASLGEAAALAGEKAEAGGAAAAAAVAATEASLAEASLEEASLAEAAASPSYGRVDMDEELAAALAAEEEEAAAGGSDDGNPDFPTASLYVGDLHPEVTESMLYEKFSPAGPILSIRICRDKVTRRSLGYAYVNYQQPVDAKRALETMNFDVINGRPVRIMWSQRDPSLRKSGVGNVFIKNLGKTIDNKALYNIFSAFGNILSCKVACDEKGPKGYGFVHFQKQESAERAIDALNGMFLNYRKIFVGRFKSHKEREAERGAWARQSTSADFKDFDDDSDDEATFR
Strand,7-mer Z-score
AGUCCGC,-0.507
UACUAUC,-0.257
UUAGGAA,0.0877
GCUGUGC,-0.229
AGUGUUA,-0.155

# Block 2
# Target: Interferon regulatory factor 7, full length, phosphomimetic (IRF7, Homo sapiens, UniProt Q92985, residues 1-503, S471D/S472D/S475D/S476D/S477D/S483D/S484D/S487D)
# UniProt Q92985, sequence (whole entry, unmodified, looked up): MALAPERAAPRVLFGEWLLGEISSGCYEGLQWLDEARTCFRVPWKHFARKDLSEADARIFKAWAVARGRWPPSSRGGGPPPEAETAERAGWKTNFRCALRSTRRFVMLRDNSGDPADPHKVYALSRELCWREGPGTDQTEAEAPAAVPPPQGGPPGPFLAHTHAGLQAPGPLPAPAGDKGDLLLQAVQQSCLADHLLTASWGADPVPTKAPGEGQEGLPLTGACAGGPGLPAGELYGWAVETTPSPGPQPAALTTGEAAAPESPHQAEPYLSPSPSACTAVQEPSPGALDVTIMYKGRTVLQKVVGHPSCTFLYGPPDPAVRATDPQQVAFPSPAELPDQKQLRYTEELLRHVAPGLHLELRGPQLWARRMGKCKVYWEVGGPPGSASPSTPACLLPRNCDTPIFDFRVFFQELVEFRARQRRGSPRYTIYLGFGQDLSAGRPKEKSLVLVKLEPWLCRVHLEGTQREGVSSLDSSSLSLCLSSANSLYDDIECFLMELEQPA
# Method: protein-binding microarray
# Molecule type: double-stranded DNA, one strand shown
# Medium: in vitro
# Concentration: 2200 nM top
# Setting: 60-bp whole probe
# Added: salmon DNA 0.4 mg/ml
# Relative to: random background probes
# Direction: higher = stronger binding
Strand,fitted relative affinity [z-score]
GCCTAGCACGACGGTATCGGGTATCGGGCCGTGCTAGTCTTGATTCGCTTGACGCTGCTG,-0.338
GCCTAGCACTAGTTTTCATTTTCTGAATGTGTGCTAGTCTTGATTCGCTTGACGCTGCTG,6.72
GCCTAGCACTTGGAACTGAGTTTCGATTAGTGCTAGGTCTTGATTCGCTTGACGCTGCTG,3.63
GCCTAGCACGACGGTATCGACTTTCGGAACGTGCTAGTCTTGATTCGCTTGACGCTGCTG,3.78

# Block 3
# Target: Histone acetyltransferase KAT6A, winged helix 1, GST fusion (KAT6A, Homo sapiens, UniProt Q92794, residues 1-85)
# Method: protein binding microarray
# Molecule type: double-stranded DNA, one strand shown
# Medium: in vitro
# Concentration: not given
# Setting: 8-mer, flanks averaged, mean of 2 arrays, mostly near background
# Relative to: not given
# Direction: higher = stronger binding
# Target sequence (chain): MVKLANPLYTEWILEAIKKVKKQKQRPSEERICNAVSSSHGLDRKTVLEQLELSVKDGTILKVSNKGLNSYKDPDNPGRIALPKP
Strand,E-score
CAATGCAG,-0.0504
ACTGACAG,-0.0575
TCATCACA,-0.177
CAGCAACG,-0.0986
GCATCCGA,0.12

# Other studies, line by line
Molecule,target,test,test system,conditions,scale,measurement,result
"PhoQ, residues 284 288 289 292 302 303 SMMNNA","PhoP, residues 12 14 15 18 19 NQGLL (Escherichia coli, UniProt P23836)","Sort-seq, item: YFP reporter",E. coli,"PhoQ-PhoP variant library, added: 10 µM Mg2+","relative to: high Mg2+ state, higher = stronger signaling",fold induction,2.1

# Excerpt of the above (other studies, line by line):
Molecule,target,test,test system,conditions,scale,measurement,result
"PhoQ, residues 284 288 289 292 302 303 SMMNNA","PhoP, residues 12 14 15 18 19 NQGLL (Escherichia coli, UniProt P23836)","Sort-seq, item: YFP reporter",E. coli,"PhoQ-PhoP variant library, added: 10 µM Mg2+","relative to: high Mg2+ state, higher = stronger signaling",fold induction,2.1
